Experimental data from different studies.
Compare with care: the assays were run in different laboratories. ± gives the spread as reported.

Compound	species	matrix	route	dose	time	notes	tissue uptake
CCCC[C@H](NC(=O)CNC(=O)CNC(=O)CN1CCN(CC(=O)O)CCN(CC(=O)O)CCN(CC(=O)O)CC1)C(=O)N[C@H]1CC(=O)NCCCC[C@@H](C(N)=O)NC(=O)[C@H](Cc2c[nH]c3ccccc23)NC(=O)[C@H](CCCNC(=N)N)NC(=O)[C@@H](Cc2ccccc2)NC(=O)[C@H](Cc2c[nH]cn2)NC1=O [lutetium-177 labelled]	C57 mouse, female	pancreas	intravenous	0.037 MBq	4 h		0.24 ± 0.09 %ID/g
CCCC[C@H](NC(=O)CNC(=O)CNC(=O)CN1CCN(CC(=O)O)CCN(CC(=O)O)CC1)C(=O)N[C@H]1CC(=O)NCCCC[C@@H](C(N)=O)NC(=O)[C@H](Cc2c[nH]c3ccccc23)NC(=O)[C@H](CCCNC(=N)N)NC(=O)[C@@H](Cc2ccccc2)NC(=O)[C@H](Cc2c[nH]cn2)NC1=O [technetium-99m labelled]	C57 mouse	spleen	iv	0.037 MBq	4 h		0.11 ± 0.05 %ID/g
Cc1cc(O)cc(C)c1C[C@H](NC(=O)[C@@H]1CCCN1C(=O)[C@H](CCCNC(=N)N)NC(=O)[C@H](CCCNC(=N)N)N(C)C(=O)[C@@H]1CCCN1C(=O)[C@@H](CC(C)C)NC(=O)[C@@H](CC(C)C)NC(=O)[C@H](CCCCN)NC(=O)[C@@H](CC(C)C)NC(=O)[C@@H](CC(C)C)NC(=O)CN1CCN(CC(=O)O)CCN(CC(=O)O)CCN(CC(=O)O)CC1)C(=O)N[C@H](C(=O)N[C@@H](CC(C)C)C(=O)O)C(C)(C)C [lutetium-177 labelled]	CF-1 mouse	kidney	iv	370 kBq	1 h		64.8 ± 10.8 %ID/g
CC(C)C[C@H](NC(=O)CN1CCN(CC(=O)O)CCN(CC(=O)O)CC1)C(=O)N[C@@H](CC(C)C)C(=O)N[C@@H](CC(C)C)C(=O)N[C@@H](CC(C)C)C(=O)N[C@@H](CCCNC(=N)N)C(=O)N[C@H](C(=O)N[C@@H](CCCCN)C(=O)N[C@@H](CCCNC(=N)N)C(N)=O)C(C)C [copper-64 labelled]	CD1 mouse, male	spleen	intravenous		15 min	blocked, unlabelled peptide 0.1 µmol	1.9 ± 0.2 %ID/g
Cc1cc(O)cc(C)c1C[C@H](NC(=O)[C@@H]1CCCN1C(=O)[C@H](CCCNC(=N)N)NC(=O)[C@H](CCCNC(=N)N)N(C)C(=O)[C@@H]1CCCN1C(=O)[C@H](CCCCN)NC(=O)[C@@H](CC(C)C)NC(=O)[C@@H](CC(C)C)NC(=O)[C@@H](CC(C)C)NC(=O)[C@@H](CC(C)C)NC(=O)CN1CCN(CC(=O)O)CCN(CC(=O)O)CCN(CC(=O)O)CC1)C(=O)N[C@H](C(=O)N[C@@H](CC(C)C)C(=O)O)C(C)(C)C [lutetium-177 labelled]	CF-1 mouse	liver	iv	370 kBq	24 h		5.67 ± 0.57 %ID/g
CC(C)[C@H](NC(=O)[C@@H]1CCCN1C(=O)[C@H](CCCNC(=N)N)NC(=O)[C@H](CS)NC(=O)[C@H](Cc1c[nH]c2ccccc12)NC(=O)[C@H](CCCNC(=N)N)NC(=O)[C@@H](Cc1ccccc1)NC(=O)[C@H](Cc1c[nH]cn1)NC(=O)[C@H](CCC(=O)O)NC(=O)[C@H](CS)NC(=O)[C@H](CS)NC(=O)[C@H](CCCCN)NC(=O)[C@@H]1CC(=O)N[C@@H](CCCNC(=N)N)C(=O)N[C@H](Cc2ccccc2)C(=O)N[C@@H](CC(=O)O)C(=O)N[C@H](Cc2ccc(O)cc2)C(=O)N1)C(N)=O [technetium-99m labelled]	C57 mouse, female	intestine	intravenous	0.037 MBq	0.5 h		2.49 ± 0.6 %ID
CSCC[C@H](NC(=O)[C@H](CC(C)C)NC(=O)[C@H](Cc1c[nH]cn1)NC(=O)CNC(=O)[C@@H](NC(=O)[C@H](C)NC(=O)[C@H](Cc1c[nH]c2ccccc12)NC(=O)[C@H](CCC(N)=O)NC(=O)CCOCCOCCOCCOCCNC(=O)CN1CCN(CC(=O)O)CCN(CC(=O)O)CCN(CC(=O)O)CC1)C(C)C)C(N)=O [indium-111 labelled]	Swiss nu/nu mouse, male, PC-3 tumour xenograft	pancreas	intravenous	10 pmol	1 h		20.8 ± 3.9 %ID/g
Cc1cc(O)cc(C)c1C[C@H](NC(=O)[C@@H]1CCCN1C(=O)[C@H](CCCNC(=N)N)NC(=O)[C@H](CCCNC(=N)N)N(C)C(=O)[C@@H]1CCCN1C(=O)[C@@H](CC(C)C)NC(=O)[C@@H](CC(C)C)NC(=O)[C@@H](CC(C)C)NC(=O)[C@@H](CC(C)C)NC(=O)[C@H](CCCCN)NC(=O)CN1CCN(CC(=O)O)CCN(CC(=O)O)CCN(CC(=O)O)CC1)C(=O)N[C@H](C(=O)N[C@@H](CC(C)C)C(=O)O)C(C)(C)C [lutetium-177 labelled]	CF-1 mouse	kidney	iv	370 kBq	24 h		77.8 ± 10.2 %ID/g
C[C@@H](O)[C@H](NC(=O)[C@@H]1CSSC[C@H](NC(=O)[C@@H](Cc2ccccc2)NC(=O)CN2CCCN3CCN(CCCN(CC(=O)O)CC3)CC2)C(=O)N[C@@H](Cc2ccc(O)cc2)C(=O)N[C@H](Cc2c[nH]c3ccccc23)C(=O)N[C@@H](CCCCN)C(=O)N[C@@H]([C@@H](C)O)C(=O)N1)C(=O)O [copper-64 labelled]	female C.B.17 SCID mouse, MCF7 xenograft	tumour	intravenous	185 kBq	4 h	intratumoral saline control	1.04 ± 0.21 %ID/g
N=C(N)NCCC[C@@H]1NC(=O)[C@H](CCCCNC(=O)CCOCCOCCOCCOCCNC(=O)CC[C@H](NC(=O)CCOCCOCCOCCOCCNC(=O)CN2CCN(CC(=O)O)CCN(CC(=O)O)CCN(CC(=O)O)CC2)C(=O)NCCOCCOCCOCCOCCC(=O)NCCCC[C@@H]2NC(=O)[C@@H](Cc3ccccc3)NC(=O)[C@H](CC(=O)O)NC(=O)CNC(=O)[C@H](CCCNC(=N)N)NC2=O)NC(=O)[C@@H](Cc2ccccc2)NC(=O)[C@H](CC(=O)O)NC(=O)CNC1=O [copper-64 labelled]	athymic nu/nu mouse, female	kidney	intravenous		0.5 h		6.59 ± 0.93 %ID/g
CCCC[C@H](NC(=O)COCCOCCNC(=O)CN1CCN(CC(=O)O)CCN(CC(=O)O)CC1)C(=O)N[C@H]1CC(=O)NCCCC[C@@H](C(N)=O)NC(=O)[C@H](Cc2c[nH]c3ccccc23)NC(=O)[C@H](CCCNC(=N)N)NC(=O)[C@@H](Cc2ccccc2)NC(=O)[C@H](Cc2c[nH]cn2)NC1=O [copper-64 labelled]	C57 mouse	lung, bone and spleen	intravenous	0.37 MBq	2 h		< 0.7 %ID/g

Some of these lines once more:
Compound	species	matrix	route	dose	time	notes	tissue uptake
Cc1cc(O)cc(C)c1C[C@H](NC(=O)[C@@H]1CCCN1C(=O)[C@H](CCCNC(=N)N)NC(=O)[C@H](CCCNC(=N)N)N(C)C(=O)[C@@H]1CCCN1C(=O)[C@@H](CC(C)C)NC(=O)[C@@H](CC(C)C)NC(=O)[C@H](CCCCN)NC(=O)[C@@H](CC(C)C)NC(=O)[C@@H](CC(C)C)NC(=O)CN1CCN(CC(=O)O)CCN(CC(=O)O)CCN(CC(=O)O)CC1)C(=O)N[C@H](C(=O)N[C@@H](CC(C)C)C(=O)O)C(C)(C)C [lutetium-177 labelled]	CF-1 mouse	kidney	iv	370 kBq	1 h		64.8 ± 10.8 %ID/g
